Published values collected from several papers.
A part holds a random share of what one study measured. Positions count from the first letter of the parent shown.

Series 1
Target: Hepatocyte nuclear factor 3-alpha (Foxa1, Mus musculus, UniProt P35582, residues 1-468, full length assumed)
Technique: EMSA with sequencing
Molecule type: double-stranded DNA, one strand shown
Medium: in vitro
Tested at: 10 and 20 nM
Setting: whole designed probe, mean of two concentrations, ends assumed
Reference: negative control set to 0
Reading: higher = stronger binding
Shared flanks, not repeated: GTGAGCGGTGCCCATTGATGGGGAAC … TTTCACTGGGATCGTGGGGAC
Residues (chain): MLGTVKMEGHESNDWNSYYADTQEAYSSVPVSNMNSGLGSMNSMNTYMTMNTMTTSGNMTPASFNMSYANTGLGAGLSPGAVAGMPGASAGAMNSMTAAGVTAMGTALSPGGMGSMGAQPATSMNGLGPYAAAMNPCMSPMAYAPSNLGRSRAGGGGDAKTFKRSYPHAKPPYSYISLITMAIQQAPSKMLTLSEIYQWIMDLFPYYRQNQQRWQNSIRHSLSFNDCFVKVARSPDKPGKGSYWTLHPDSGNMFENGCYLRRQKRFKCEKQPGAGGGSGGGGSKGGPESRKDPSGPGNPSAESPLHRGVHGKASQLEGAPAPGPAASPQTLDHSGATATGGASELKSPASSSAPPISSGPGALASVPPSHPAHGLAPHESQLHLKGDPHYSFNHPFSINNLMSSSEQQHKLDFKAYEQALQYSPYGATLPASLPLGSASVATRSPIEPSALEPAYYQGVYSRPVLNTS
Under “normalised bound fraction”, `GAGGCTCCCCTTTACGAATGGGGGCACCCGGGCTGCAGCCACTACTACTTCGCTTGGGATCGGTCCTCCGCCCCAAGATGGCTCCCAGTCGCTGTTTACTCAGCGACTGCAGGGACACCAGGGCGCGGGGCCGGGGAGCGGGCGAAGATCACGGAGCGTACAGATTGGCCCGGGCAGGTGGCCTCTCCGCGTG` is recorded as 0.331 ratio.
Under “normalised bound fraction”, `TGTCCCCAAACTAAATTAACAACTTTTTCCAAGACAAGTTCCAACACCAATTCATCCCCCAACTCCCCCGCCTCTTTTTTTTTTTTTTTTTAAAGTAATCTAGGATACCTTCATTCTCTCAGGAAAAAGGTGACATCAAATTACCTTCTCTTTTTTCTTCTCAATCTTCCAAAACCTTTTCCCAAAGTCATTT` is recorded as -0.0309 ratio.
`ATGTGGCTTTAGCTGTGTCCCAAAGATTTTGGTATGTGTTTTCTCTGTTTTCACTTATTTCAAAGAACTTTTAAATTTCTGCCTTGATATCATAGATTACTCAAAAGTTGTTGAGGAGCCAGTTGTTTAATTTCTATGCATTTCTGTGGTTTTGAGAGATCTTCTTGGTATTGTTTTCTGTTTTTATTCTATT` — result for “normalised bound fraction”: 0.0442 ratio.
For `CACTCAGCTGTTTTCTTAAACTTGGTTGAATAACTGGTATTCTTCCTGCTCACAAAGTCTTTGTTAGTGTGCATATTGCAAAACCATCCTAAGTAATCTGTCTGTGTCATCTGTATTAAAGGGAAGTTATGCATGGATTAGTGTATAATAGCATGGGTTAGGGAGAAAAATGAGTCACCAAAGTAGCTGGTTC`, “normalised bound fraction” read -0.0448 ratio.
`ATCTTCCCCCTCTTCCTTGCCCCACCAGCTCACCTTCCCGGGTCAAAGTAAACAAGTGTTTACTTTGAAGCCGGCATTCGTTAACCCTCTTCACGCGCATACTGCACATTGGTCTGGATGAATCATGGTCCTTTGGCGACGCCAGGCTCCGGGAGAGCAAAGCACCGTGTCAGGGCCATGATCCGGGGTGGCC`: “normalised bound fraction” 0.436 ratio.
Under “normalised bound fraction”, `ATCTTCCCCCTCTTCCTTGCCCCACCAGCTCACCTACGGGGGTTATTTGCACAAAGGAAAATAAATAAAGCCGGCATTCGTTAACCCTCTTCACGCGCATACTGCTGTTTGCTCTGGATCTAACATGGTCCTTTGGCGACGCCAGGCTCCGGGAGAGCAAAGCACCGTGTCAGGGCCATGATCCGGGCTCGCC` is recorded as 0.391 ratio.
`CCTCTGACTCACCCTTCCTAGTGCCACCCAAGTTTCATCTGCACCATTGCTTACACATAATACAAGTACTTTATTTACTTACGCATTTGTTAATGTTTGCTCAGCTGTCTTGGTGCCTTTGTGTCTTTCACTGTGCTTTTAATTAGCTCGGCTGATTCTAAGAGTGGAGGTAAGCCAAGGTTTGAACCAGGTG` — result for “normalised bound fraction”: 0.518 ratio.
`ATTTGGGACATTTGAAACTGAAATAACTGATCACTATAATTTTTCTTTCAATGTTAATCTAGCATCATTTAGCATGGAGAAGCCATCTATCCTGTTTACTTTGACACTGGCCAAAGTTAGAGCCAGGACAAAAATAAGATAATTGTGTTTTTTTTCTCTTCAAAAAATATATATTCCTTCTGTTAGTCTCCAA` — result for “normalised bound fraction”: 0.179 ratio.

Series 2
Effect on: peptide binding
Molecule type: peptide
Medium: yeast competitive growth
Together with: B2-Cln2 chimera
Reading: direction not given
`KRCATPVIIDEILPSK` gave an enrichment score of 0.0479.
`SPPRGRRLFPPGPAGF` gave an enrichment score of -0.324.
With `EPRNLLSLFEDTLDPT` the enrichment score was 1.93.
With `GPVKLEFDVSDGAT` the enrichment score was 0.0214.
For `RQVRRDLFAF`, the enrichment score was -1.39.
The enrichment score of `YLYLLLTQSLWCRV` is reported as -1.01.
`PHKTFRKLRLFDTPHT` gave an enrichment score of -0.298.
`AKRSLGFLPQPVPL` gave an enrichment score of -0.77.
`GTPKRCLDLSNLSSGE` has an enrichment score of -0.0931.

Series 3
Target: CREB5, bZIP domain (human)
Technique: DHFR protein complementation
Medium: yeast
Setting: single substitutions, most at no-binding floor
Reference: wild-type JUN-FOS pair
Reading: higher = stronger binding
Starting sequence: JUN, bZIP domain (human); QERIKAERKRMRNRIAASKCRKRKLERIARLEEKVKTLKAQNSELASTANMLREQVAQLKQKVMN; partner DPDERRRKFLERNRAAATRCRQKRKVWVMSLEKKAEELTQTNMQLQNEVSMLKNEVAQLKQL
With `R53L` the binding fitness was -1.19 natural log.
The binding fitness of `K34I` is reported as -0.439 natural log.
`S43W` has a binding fitness of -0.516 natural log.
With `S47V` the binding fitness was -0.169 natural log.
For `L45T`, the binding fitness was -1.36 natural log.
`S43N` gave a binding fitness of -0.228 natural log.
With `Q41Y` the binding fitness was -1.42 natural log.
The binding fitness of `E54C` is reported as -0.652 natural log.
The binding fitness of `L45W` is reported as -1.18 natural log.

Mixed results
With `PhoQ, residues 284 288 289 292 302 303 ASTSDA` the fold induction was 13.2 (PhoP, residues 12 14 15 18 19 LHHSG (Escherichia coli, UniProt P23836); Sort-seq, item: YFP reporter; E. coli; PhoQ-PhoP variant library, together with: 10 µM Mg2+; reference: high Mg2+ state, higher = stronger signaling).
